Measurements collected from several papers.
Numbered parts are unrelated; each lists some results of a single study.
UniProt Q9UPE1, sequence (whole entry, looked up): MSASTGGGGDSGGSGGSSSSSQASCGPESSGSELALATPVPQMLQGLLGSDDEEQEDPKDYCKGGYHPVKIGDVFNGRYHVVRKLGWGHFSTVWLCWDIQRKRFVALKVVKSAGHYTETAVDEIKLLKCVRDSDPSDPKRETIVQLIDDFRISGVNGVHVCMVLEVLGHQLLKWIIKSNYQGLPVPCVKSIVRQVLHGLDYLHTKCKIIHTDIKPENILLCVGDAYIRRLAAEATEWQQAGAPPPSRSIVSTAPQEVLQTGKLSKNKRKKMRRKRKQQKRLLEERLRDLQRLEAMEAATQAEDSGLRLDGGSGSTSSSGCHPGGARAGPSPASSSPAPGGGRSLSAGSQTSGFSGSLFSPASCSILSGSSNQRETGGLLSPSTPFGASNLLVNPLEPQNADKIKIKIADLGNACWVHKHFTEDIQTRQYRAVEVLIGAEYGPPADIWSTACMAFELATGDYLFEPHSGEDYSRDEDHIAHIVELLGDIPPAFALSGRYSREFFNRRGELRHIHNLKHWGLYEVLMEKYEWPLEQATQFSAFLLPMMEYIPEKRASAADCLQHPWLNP
UniProt Q99640, sequence (whole entry, looked up): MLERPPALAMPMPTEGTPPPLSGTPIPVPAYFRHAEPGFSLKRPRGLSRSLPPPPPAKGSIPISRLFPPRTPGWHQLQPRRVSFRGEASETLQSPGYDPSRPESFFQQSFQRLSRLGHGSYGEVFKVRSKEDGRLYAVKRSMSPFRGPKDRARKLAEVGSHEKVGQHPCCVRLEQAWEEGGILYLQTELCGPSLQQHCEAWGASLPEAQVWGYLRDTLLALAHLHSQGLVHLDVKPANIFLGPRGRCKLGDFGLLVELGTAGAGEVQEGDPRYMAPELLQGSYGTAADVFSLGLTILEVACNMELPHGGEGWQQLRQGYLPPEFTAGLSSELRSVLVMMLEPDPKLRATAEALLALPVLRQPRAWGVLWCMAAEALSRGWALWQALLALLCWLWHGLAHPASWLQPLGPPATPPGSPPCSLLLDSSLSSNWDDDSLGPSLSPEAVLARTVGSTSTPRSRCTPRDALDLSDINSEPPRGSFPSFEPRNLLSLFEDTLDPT
UniProt P07333, sequence (whole entry, looked up): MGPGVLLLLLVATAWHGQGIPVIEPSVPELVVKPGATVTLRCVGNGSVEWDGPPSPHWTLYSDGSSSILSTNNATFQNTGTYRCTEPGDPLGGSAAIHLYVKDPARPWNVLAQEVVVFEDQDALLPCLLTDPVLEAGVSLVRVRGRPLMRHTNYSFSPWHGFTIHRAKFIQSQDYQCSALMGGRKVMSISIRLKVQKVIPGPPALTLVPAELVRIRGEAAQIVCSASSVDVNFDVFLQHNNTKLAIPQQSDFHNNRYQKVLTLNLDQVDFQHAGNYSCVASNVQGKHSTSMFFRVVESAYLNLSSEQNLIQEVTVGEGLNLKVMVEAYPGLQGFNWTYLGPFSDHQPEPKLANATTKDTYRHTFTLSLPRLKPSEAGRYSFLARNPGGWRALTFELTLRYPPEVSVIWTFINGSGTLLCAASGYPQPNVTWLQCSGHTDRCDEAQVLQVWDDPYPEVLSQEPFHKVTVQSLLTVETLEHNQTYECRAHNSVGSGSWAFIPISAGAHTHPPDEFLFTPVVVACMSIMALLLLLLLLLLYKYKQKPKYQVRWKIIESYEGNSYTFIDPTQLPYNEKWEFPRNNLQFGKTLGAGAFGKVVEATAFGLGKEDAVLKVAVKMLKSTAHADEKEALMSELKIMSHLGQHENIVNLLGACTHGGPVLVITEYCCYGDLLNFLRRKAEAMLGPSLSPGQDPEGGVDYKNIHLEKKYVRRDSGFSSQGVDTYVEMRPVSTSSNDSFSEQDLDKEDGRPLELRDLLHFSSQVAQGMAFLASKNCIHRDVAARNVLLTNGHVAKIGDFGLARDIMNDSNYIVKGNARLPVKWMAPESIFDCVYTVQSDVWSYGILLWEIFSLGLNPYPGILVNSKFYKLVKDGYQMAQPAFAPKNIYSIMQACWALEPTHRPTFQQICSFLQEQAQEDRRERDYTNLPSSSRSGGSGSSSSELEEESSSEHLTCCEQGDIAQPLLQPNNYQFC
UniProt P23458, sequence (whole entry, looked up): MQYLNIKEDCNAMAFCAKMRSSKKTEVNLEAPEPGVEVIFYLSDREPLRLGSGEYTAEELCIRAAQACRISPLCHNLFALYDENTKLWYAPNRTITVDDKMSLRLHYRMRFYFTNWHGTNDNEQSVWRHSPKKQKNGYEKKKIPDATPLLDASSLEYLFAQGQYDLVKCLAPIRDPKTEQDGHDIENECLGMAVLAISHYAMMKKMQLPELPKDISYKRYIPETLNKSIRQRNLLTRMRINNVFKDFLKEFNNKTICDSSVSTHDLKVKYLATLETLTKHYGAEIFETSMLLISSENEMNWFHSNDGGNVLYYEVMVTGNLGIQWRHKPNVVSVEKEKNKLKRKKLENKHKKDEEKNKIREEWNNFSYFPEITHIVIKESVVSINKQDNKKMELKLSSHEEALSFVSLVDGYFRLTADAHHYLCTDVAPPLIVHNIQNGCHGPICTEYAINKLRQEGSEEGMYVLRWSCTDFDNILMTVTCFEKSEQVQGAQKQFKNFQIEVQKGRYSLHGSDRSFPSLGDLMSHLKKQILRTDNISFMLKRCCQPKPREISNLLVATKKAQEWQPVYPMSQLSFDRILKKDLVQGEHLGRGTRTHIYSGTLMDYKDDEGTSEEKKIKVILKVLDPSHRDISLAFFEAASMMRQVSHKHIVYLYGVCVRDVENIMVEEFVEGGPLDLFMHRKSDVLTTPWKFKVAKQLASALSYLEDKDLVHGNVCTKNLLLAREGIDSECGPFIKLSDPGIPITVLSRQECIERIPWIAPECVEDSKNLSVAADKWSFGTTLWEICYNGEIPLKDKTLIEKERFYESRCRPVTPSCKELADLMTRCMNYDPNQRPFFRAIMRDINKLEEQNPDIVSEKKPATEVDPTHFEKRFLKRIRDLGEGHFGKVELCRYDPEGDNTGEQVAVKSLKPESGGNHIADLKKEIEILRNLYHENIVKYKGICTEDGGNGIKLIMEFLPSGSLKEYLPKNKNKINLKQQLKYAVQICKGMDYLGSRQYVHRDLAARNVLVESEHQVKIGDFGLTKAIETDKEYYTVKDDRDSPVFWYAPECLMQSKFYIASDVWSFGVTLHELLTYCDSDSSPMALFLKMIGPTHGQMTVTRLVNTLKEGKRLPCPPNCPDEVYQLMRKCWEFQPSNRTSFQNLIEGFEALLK
UniProt O43683, sequence (whole entry, looked up): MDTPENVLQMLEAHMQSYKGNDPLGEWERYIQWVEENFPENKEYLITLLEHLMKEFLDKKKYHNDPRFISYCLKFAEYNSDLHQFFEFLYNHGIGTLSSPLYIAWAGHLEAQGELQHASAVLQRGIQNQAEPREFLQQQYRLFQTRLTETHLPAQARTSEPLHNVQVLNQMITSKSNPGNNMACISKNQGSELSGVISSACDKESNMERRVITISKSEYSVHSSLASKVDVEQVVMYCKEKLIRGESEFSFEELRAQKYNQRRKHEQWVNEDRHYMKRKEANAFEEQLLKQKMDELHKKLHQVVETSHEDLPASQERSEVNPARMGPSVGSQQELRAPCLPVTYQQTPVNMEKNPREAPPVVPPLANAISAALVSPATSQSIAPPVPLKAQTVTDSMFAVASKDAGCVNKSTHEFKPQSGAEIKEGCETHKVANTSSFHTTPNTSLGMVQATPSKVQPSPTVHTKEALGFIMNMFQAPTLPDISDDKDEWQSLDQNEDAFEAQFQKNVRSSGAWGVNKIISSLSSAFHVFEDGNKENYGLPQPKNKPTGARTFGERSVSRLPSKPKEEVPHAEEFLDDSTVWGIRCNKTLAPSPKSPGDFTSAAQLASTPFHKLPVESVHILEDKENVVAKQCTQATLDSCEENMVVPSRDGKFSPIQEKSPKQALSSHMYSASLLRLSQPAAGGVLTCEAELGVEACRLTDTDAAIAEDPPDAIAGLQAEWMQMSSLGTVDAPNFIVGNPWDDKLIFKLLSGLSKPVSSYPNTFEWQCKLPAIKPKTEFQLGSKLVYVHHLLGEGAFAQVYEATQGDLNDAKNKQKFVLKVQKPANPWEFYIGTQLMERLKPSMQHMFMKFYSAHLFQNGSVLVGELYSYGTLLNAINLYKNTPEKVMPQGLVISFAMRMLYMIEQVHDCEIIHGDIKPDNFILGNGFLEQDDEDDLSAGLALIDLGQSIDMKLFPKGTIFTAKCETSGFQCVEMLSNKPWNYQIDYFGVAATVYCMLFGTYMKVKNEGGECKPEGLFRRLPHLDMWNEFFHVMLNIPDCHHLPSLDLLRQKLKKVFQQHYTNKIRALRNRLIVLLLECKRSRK
UniProt Q9UIK4, sequence (whole entry, looked up): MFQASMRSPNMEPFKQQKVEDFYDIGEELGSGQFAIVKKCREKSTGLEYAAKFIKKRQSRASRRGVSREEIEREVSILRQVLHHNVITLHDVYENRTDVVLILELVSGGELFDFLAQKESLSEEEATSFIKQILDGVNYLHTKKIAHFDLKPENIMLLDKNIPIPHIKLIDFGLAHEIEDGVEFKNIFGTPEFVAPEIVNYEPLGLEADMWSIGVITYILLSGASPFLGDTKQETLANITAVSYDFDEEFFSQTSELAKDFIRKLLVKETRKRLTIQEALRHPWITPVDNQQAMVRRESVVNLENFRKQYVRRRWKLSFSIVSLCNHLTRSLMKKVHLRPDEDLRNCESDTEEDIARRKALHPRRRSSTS

Series 1 — observed: enzyme activity; action: inhibitor; concentration: 0.5 µM; reference: control; quantity: remaining activity
Target: Mitogen-activated protein kinase 12 (MAPK12, Homo sapiens, UniProt P53778)
Residues (P53778 1-367): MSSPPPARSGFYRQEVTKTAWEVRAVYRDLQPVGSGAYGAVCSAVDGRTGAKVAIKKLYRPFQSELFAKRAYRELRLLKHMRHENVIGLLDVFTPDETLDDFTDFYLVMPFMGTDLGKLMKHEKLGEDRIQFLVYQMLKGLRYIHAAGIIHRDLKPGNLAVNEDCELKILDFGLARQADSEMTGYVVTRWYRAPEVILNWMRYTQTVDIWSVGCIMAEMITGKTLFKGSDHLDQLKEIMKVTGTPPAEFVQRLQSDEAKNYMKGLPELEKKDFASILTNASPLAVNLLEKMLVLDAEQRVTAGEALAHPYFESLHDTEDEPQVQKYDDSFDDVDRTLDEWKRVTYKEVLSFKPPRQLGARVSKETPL
O=C1NC(=O)C(c2cn(CCCO)c3ncccc23)=C1c1cnccn1: 86.8%
COc1cc2ncnc(Nc3ccc(F)c(Cl)c3)c2cc1OCCCN1CCOCC1: 97.5%
O=C(O)c1ccc2c3c1cccc3c(=O)n1c3ccccc3nc21: 103%
Cc1ccc(NC(=O)c2ccc(CN3CCN(C)CC3)cc2)cc1Nc1nc(-c2cccnc2)cs1: 96.9%
COc1ccc(OC)c2c(=S)c3ccccc3[nH]c12: 98.1%
CO[C@H]1C[C@@H]2CC[C@@H](C)[C@@](O)(O2)C(=O)C(=O)N2CCCC[C@H]2C(=O)O[C@H]([C@H](C)C[C@@H]2CC[C@@H](O)[C@H](OC)C2)CC(=O)[C@H](C)/C=C(\C)[C@@H](O)[C@@H](OC)C(=O)[C@H](C)C[C@H](C)/C=C/C=C/C=C/1C: 107%
Cc1ccc(Nc2nccc(N(C)c3ccc4c(C)n(C)nc4c3)n2)cc1S(N)(=O)=O: 93.7%
O=S(=O)(c1cccc2cnccc12)N1CCCNCC1: 99.3%
N#CC(C#N)=C(N)/C(C#N)=C/c1ccc(O)cc1: 92.6%
Cn1sc(=O)n(Cc2ccccc2)c1=O: 102%
COc1cc2nccc(Oc3ccc(NC(=S)NC(=O)c4ccccc4C)cc3)c2cc1OC: 96.8%
Nc1ccc2ncnc(NCCc3ccc(Oc4ccccc4)cc3)c2c1: 93.6%
C#Cc1cccc(Nc2ncnc3cc(OCCOC)c(OCCOC)cc23)c1: 97.8%

Series 2 — technique: protein-binding microarray; form: hairpin DNA; sample: in vitro; concentration: not given; reference: not given; direction: higher = stronger binding; quantity: median fluorescence
Target: Runt-related transcription factor 1, full length (RUNX1, Homo sapiens, UniProt Q01196-8, residues 1-480)
Setting: whole hairpin DNA, median over replicate spots
GAGGCCCACCCGCAACAGCCTCCTGGCTGTTGCGGGTGGGCCTCACACTC (5mC at 9): 2330 a.u.
GAGGCCTAACCGCAACAGCCTCCTGGCTGTTGCGGTTAGGCCTCACACTC: 11100 a.u.
GAGGCCTGTTGTGGTCGGCCTCCTGGCCGACCACAACAGGCCTCACACTC: 3030 a.u.
GAGGCCTGTTGCGGTTGGCCTCCTGGCCAACCGCAACAGGCCTCACACTC: 5920 a.u.
CTCAGTTCAGTGGGCTGGACTCCTGTCCAGCCCACTGAACTGAGACACTC: 1790 a.u.
CTCAGTACTGTGGGCTGGACTCCTGTCCAGCCCACAGTACTGAGACACTC: 1810 a.u.
GAGGCCTGTTACGGTTGGCCTCCTGGCCAACCGTAACAGGCCTCACACTC: 1760 a.u.
GAGGCCTGTTGTGCGTGGCCTCCTGGCCACGCACAACAGGCCTCACACTC (5mC at 14): 1800 a.u.

Series 3 — technique: competition with immobilised ligand; concentration: 1 µM; quantity: remaining binding
SMILES: O=C1NC(c2ccccn2)Sc2ccccc21 (stereo not shown)
PRKACA (Homo sapiens, UniProt P17612); cell-free assay: 81%
CDK4 (Homo sapiens, UniProt P11802); cell-free assay: 93%
DAPK2 (Homo sapiens, UniProt Q9UIK4); cell-free assay: 79%
SYK (Homo sapiens, UniProt P43405); cell-free assay: 75%
MAP4K1 (Homo sapiens, UniProt Q92918); cell-free assay: 95%
SRPK3 (Homo sapiens, UniProt Q9UPE1); cell-free assay: 100%
MAP3K7 (Homo sapiens, UniProt O43318); cell-free assay: 99%
CSF1R (Homo sapiens, UniProt P07333); cell-free assay: 85%
Tyrosine-protein kinase JAK1, JH2 (JAK1, Homo sapiens, UniProt P23458); cell-free assay: 69%
CDK9 (Homo sapiens, UniProt P50750); cell-free assay: 100%
STK24 (Homo sapiens, UniProt Q9Y6E0); cell-free assay: 94%
GRK2 (Homo sapiens, UniProt P25098); cell-free assay: 58%
PIK3CA (Homo sapiens, UniProt P42336, E545A); cell-free assay: 97%
BUB1 (Homo sapiens, UniProt O43683); cell-free assay: 100%
BMPR1A (Homo sapiens, UniProt P36894); binding: 100%
STK35 (Homo sapiens, UniProt Q8TDR2); cell-free assay: 99%
LIM domain kinase 1 (LIMK1, Homo sapiens, UniProt P53667); cell-free assay: 78%
PKMYT1 (Homo sapiens, UniProt Q99640); cell-free assay: 100%
MAP4K3 (Homo sapiens, UniProt Q8IVH8); cell-free assay: 100%
Tyrosine-protein kinase ABL1, non-phosphorylated (ABL1, Homo sapiens, UniProt P00519, T315I); cell-free assay: 100%

Series 4 — technique: protein-binding microarray; form: double-stranded DNA, one strand shown; sample: in vitro; concentration: 2540 nM top; setting: 60-bp whole probe; added: salmon DNA 0.4 mg/ml; reference: random background probes; direction: higher = stronger binding; quantity: fitted relative affinity
Target: Interferon regulatory factor 3, full length, phosphomimetic (IRF3, Homo sapiens, UniProt Q14653, residues 1-427, S386D/S396D/S398D/S402D/T404D/S405D)
UniProt Q14653, sequence (whole entry, unmodified, looked up): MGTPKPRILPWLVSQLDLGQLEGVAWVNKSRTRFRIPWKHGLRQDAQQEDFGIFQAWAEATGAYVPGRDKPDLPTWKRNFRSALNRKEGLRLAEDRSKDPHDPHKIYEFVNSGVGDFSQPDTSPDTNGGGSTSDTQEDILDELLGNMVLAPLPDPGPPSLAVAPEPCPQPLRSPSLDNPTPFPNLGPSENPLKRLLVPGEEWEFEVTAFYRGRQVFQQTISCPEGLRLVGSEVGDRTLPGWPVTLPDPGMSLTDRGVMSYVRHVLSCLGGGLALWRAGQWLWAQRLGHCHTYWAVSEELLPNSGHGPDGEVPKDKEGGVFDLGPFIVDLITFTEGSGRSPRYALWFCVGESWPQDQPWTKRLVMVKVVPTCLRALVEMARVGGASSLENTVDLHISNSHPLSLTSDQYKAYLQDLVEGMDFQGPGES
All sequences stand within: GCCTAGCAC … GTGCTAGGTCTTGATTCGCTTGACGCTGCTG
GACGATATCAGTTTCGAGCC: 2.34 z-score
CTAGGTCTCGGTATCGGTTA: 2.51 z-score
TCAGTTTCCTCTTTCTTACT: 6.9 z-score
GACGGTCTCCTTCTCCTGTC: 4.6 z-score
TTAGGCTTCGGTTTCGGTTA: 4.9 z-score
GAGGGACTGGGACTGGGGAC: -1.15 z-score
GATGGTATCCTACTGCTGAC: 2.38 z-score
ACTTCTCCATTTTTCTAGTC: 2.38 z-score
